Measured values pooled from the literature.
A part holds a random share of what one study measured. Changes are numbered by the printed parent chain.

Sample 1 — target: CCNE1, cyclin fold, Cln2 fusion (human); technique: yeast growth competition, sequencing; medium: yeast; setting: strong parent motif; baseline: not given; reading: higher = stronger binding
Starting sequence: BRCA2 docking peptide (human); PSIKRNLLNEFDR; partner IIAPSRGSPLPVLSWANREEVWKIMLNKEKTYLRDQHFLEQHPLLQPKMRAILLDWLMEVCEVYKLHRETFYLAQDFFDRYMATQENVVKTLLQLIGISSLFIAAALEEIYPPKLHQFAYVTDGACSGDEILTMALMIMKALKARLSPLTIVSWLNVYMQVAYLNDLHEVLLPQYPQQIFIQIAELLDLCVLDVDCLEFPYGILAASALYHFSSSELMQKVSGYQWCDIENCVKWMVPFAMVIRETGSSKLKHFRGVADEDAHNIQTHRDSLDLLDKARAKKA
`N9K` — result for “normalised enrichment score”: 2.08.
`K4G` — result for “normalised enrichment score”: -0.283.
`K4M` — result for “normalised enrichment score”: 0.888.
Under “normalised enrichment score”, `N9G` is recorded as 1.34.
For `I3Q`, “normalised enrichment score” read -0.0291.
`L8C`: “normalised enrichment score” 1.11.
Under “normalised enrichment score”, `F11N` is recorded as 0.0568.
Under “normalised enrichment score”, `L7C` is recorded as -0.147.

Sample 2 — technique: protein-binding microarray; form: double-stranded DNA, one strand shown; medium: in vitro; concentration: 940 nM top; setting: 60-bp whole probe; added: salmon DNA 0.4 mg/ml; baseline: random background probes; reading: higher = stronger binding; shared flanks, not repeated: GCCTAGCAC … GTCTTGATTCGCTTGACGCTGCTG
Target: Interferon regulatory factor 5, full length, phosphomimetic (IRF5, Homo sapiens, UniProt Q13568-2, residues 1-514, S451D/S453D/S456D/S462D)
`AGACGAATCATATCAAAATTGTGCTAG` — result for “fitted relative affinity”: -0.0635 z-score.
Under “fitted relative affinity”, `GATGGACTGGGGTATCGGGACGTGCTA` is recorded as 0.572 z-score.
Under “fitted relative affinity”, `GACGGTATCGGGTATCGGGATGTGCTA` is recorded as 5.38 z-score.
For `TTAGGTTTCCTTATCCTCTAGTGCTAG`, “fitted relative affinity” read 2.03 z-score.
`TTAGAACTGAGTTACGATTAGTGCTAG` — result for “fitted relative affinity”: -0.324 z-score.
For `TGAGATTTCCATTATTGCTTGTGCTAG`, “fitted relative affinity” read 0.353 z-score.
Under “fitted relative affinity”, `TTAGGTCTCCTTTTTCTTTAGTGCTAG` is recorded as 0.875 z-score.
For `TCACCTTGGGCTCTAGGACTGTGCTAG`, “fitted relative affinity” read -0.478 z-score.
`TTAGGCTTCCTTTTCCTTTAGTGCTAG`: “fitted relative affinity” 0.351 z-score.
`TTAGGTTTCGCCACTGGGTTAGTGCTA`: “fitted relative affinity” 7.07 z-score.

Sample 3 — technique: universal PBM; form: double-stranded DNA, one strand shown; medium: in vitro; concentration: not given; reading: higher = stronger binding
Target: Sal-like protein 4, full length isoform B (SALL4, Homo sapiens, UniProt Q9UJQ4-2, residues 1-616)
Setting: 8-mer, flanks averaged, mean of replicates
The E-score of `ATGGACCG` is reported as -0.142.
The E-score of `AAGTCAGT` is reported as 0.00848.
With `AACGGATG` the E-score was -0.134.
With `AGCCGCCA` the E-score was -0.307.
The E-score of `TCAGCGGA` is reported as -0.199.
`CCTAAAGC` has an E-score of -0.157.
`CCGCCCAG` has an E-score of -0.285.
For `CTTAACTA`, the E-score was 0.161.
With `GCAAGTGC` the E-score was -0.248.
With `CTCGGGGC` the E-score was -0.337.

Further values, each from its own experiment
With `PhoQ, residues 284 288 289 292 302 303 SLCLSL` the fold induction was 2.79 (PhoP, residues 12 14 15 18 19 LWHCS (Escherichia coli, UniProt P23836); Sort-seq, refers to: YFP reporter; E. coli; PhoQ-PhoP variant library, added: 10 µM Mg2+; baseline: high Mg2+ state, higher = stronger signaling).

A few entries again (sample 2):
For `TGAGATTTCCATTATTGCTTGTGCTAG`, “fitted relative affinity” read 0.353 z-score.
Under “fitted relative affinity”, `TTAGGTCTCCTTTTTCTTTAGTGCTAG` is recorded as 0.875 z-score.
